{"data": "Assay results of several laboratories", "note": "Each numbered part is a random draw from the data of one study; scales do not carry over between parts. Several values in a cell are separate wells, animals, samples, runs or records.", "chain of UniProt P31152 (whole entry, looked up)": "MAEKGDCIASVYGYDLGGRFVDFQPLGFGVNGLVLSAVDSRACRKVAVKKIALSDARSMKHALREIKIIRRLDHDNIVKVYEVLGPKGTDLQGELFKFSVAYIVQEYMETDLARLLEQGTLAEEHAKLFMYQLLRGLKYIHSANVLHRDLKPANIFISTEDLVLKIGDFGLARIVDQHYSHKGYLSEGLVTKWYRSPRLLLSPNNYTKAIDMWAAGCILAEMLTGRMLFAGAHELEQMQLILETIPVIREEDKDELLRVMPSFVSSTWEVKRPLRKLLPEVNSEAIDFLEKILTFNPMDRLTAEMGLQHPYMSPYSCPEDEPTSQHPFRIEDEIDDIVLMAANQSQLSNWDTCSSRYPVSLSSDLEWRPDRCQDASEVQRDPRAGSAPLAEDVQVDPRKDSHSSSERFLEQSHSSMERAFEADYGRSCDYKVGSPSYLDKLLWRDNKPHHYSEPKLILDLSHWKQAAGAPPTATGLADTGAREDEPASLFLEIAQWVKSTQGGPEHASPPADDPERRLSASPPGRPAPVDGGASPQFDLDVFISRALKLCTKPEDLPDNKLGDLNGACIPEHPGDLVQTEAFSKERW", "chain of UniProt P15056 (whole entry, unmodified, looked up)": "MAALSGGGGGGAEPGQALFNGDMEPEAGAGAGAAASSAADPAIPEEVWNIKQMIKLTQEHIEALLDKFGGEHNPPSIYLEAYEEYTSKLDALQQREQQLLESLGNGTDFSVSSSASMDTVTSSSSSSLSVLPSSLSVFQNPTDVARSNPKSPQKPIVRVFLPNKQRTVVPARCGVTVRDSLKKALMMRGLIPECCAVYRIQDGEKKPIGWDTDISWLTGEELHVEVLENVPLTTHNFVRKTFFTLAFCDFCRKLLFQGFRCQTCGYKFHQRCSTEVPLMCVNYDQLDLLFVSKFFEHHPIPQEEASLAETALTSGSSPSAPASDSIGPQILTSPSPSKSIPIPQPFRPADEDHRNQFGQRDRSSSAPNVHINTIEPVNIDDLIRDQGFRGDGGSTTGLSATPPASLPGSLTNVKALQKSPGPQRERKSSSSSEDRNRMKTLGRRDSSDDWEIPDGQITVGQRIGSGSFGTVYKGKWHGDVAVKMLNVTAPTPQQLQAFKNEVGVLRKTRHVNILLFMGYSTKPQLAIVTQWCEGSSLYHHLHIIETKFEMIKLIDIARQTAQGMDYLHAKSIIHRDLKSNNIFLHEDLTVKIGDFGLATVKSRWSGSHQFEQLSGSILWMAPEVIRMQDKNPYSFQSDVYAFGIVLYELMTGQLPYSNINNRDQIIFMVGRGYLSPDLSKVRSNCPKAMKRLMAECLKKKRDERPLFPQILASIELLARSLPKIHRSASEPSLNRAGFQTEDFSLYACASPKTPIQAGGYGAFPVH", "chain of UniProt Q15418 (whole entry, looked up)": "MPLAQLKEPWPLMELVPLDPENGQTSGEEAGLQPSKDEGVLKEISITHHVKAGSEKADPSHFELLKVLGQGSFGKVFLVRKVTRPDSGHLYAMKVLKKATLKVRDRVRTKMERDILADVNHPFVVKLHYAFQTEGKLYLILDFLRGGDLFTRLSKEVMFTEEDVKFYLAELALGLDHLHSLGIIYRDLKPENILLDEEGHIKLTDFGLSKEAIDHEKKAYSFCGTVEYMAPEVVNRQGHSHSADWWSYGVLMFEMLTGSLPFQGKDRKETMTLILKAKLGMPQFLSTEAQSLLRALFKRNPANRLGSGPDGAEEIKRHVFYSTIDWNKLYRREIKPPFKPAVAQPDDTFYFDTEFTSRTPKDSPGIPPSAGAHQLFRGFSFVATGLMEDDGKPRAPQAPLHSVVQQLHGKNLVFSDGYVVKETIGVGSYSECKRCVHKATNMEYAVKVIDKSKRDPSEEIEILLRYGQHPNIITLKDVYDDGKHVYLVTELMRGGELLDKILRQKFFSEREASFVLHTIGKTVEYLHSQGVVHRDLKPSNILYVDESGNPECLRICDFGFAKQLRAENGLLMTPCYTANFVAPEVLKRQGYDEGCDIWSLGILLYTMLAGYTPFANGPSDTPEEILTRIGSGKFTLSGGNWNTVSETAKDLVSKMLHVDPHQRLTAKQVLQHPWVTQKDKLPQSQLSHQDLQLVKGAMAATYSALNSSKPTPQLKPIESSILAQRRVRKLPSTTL"}
{"data": "Study 1", "Compound": "COc1cc(/C=C(\\C#N)C(=O)c2ccc(O)c(O)c2)cc(I)c1O", "mode": "inhibitor", "concentration": "5 µM"}
{"target": "BRAF (Homo sapiens, UniProt P15056, G466A)", "test": "cell-based kinome profiling", "system": "human cells", "how to read": "baseline: vehicle control", "log2 fold change": -0.026}
{"target": "RPS6KA1 (Homo sapiens, UniProt Q15418)", "test": "kinase-CDC37 interaction", "system": "human cells", "how to read": "baseline: vehicle", "log2 fold change": 0.144}
{"target": "kinase–CDC37 interaction", "test": "kinase–CDC37 binding", "system": "human cells", "setting": "oncogenic TFG-NTRK1 fusion", "how to read": "baseline: vehicle", "log2 fold change": 0.245}
{"target": "MAPK4 (Homo sapiens, UniProt P31152)", "test": "cell-based kinome screen", "system": "human cells", "how to read": "baseline: untreated control", "log2 fold change": "-0.168 log2"}
{"data": "Study 2", "organism": "Sarcocystis neurona", "effect on": "parasite growth", "concentration": "10 µM", "time": "96 h", "notes": "first screen", "baseline": "untreated"}
{"SMILES": "CC[C@]1(O)C[C@H]2CN(CCc3c([nH]c4ccccc34)[C@@](C(=O)OC)(c3cc4c(cc3OC)N(C=O)[C@H]3[C@@](O)(C(=O)OC)[C@H](OC(C)=O)[C@]5(CC)C=CCN6CC[C@]43[C@@H]65)C2)C1", "log2 fold change": -0.46}
{"SMILES": "CC[N+](C)(C)c1cccc(O)c1", "log2 fold change": 0.26}
{"SMILES": "CN(C)CC[C@@H](c1ccc(Cl)cc1)c1ccccn1", "log2 fold change": 0.14}
{"SMILES": "CC(C)NCC(O)c1cc(O)cc(O)c1 (centres unmarked)", "log2 fold change": 0.2}
{"SMILES": "C/C(=C\\C(=O)OCCCCCCCCC(=O)O)C[C@@H]1OC[C@H](C[C@@H]2O[C@H]2[C@@H](C)[C@H](C)O)[C@@H](O)[C@H]1O", "log2 fold change": -0.16}
{"SMILES": "CCCNCC(O)COc1ccccc1C(=O)CCc1ccccc1 (centres unmarked)", "log2 fold change": -1.63}
{"data": "Study 3", "target": "Histamine H1 receptor (HRH1, Homo sapiens, UniProt P35367)", "effect on": "ligand displacement", "concentration": "10 µM", "chain of UniProt P35367 (whole entry, looked up)": "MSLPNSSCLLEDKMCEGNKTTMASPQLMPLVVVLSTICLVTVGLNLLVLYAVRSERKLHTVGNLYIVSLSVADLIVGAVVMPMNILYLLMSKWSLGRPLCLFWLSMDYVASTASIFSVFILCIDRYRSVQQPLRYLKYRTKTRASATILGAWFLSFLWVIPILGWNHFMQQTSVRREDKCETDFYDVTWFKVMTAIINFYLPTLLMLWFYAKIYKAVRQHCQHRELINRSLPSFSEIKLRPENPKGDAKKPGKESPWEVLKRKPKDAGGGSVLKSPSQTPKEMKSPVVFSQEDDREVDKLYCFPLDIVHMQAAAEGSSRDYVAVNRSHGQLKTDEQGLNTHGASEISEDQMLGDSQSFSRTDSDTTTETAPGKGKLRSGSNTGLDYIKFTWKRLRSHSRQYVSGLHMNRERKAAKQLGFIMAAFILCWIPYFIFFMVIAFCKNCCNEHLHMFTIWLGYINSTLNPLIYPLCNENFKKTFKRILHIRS"}
{"Structure (SMILES)": "Cc1ncc(-c2cc(Cl)ccc2F)cc1-n1c(=O)n(CC(N)=O)c2ccccc21", "inhibition": "-2.43%"}
{"Structure (SMILES)": "Cn1cc(Cl)c2c(Oc3c(F)cc(Nc4cc(Cl)nc(N)n4)cc3F)ccnc21", "inhibition": "3.19%"}
{"Structure (SMILES)": "CCC(=NO)C(C)=Cc1ccc(F)c(C)c1", "inhibition": "15.2%"}
{"Structure (SMILES)": "NS(=O)(=O)c1cc(NC(=O)Cc2ccccc2)ccc1Oc1cccc(Cl)c1", "inhibition": "15.7%"}
{"Structure (SMILES)": "Cn1nc(C(=O)NCc2ccc(C(=O)O)cc2)cc1-c1ccc2[nH]ccc2c1", "inhibition": "8.74%"}
{"Structure (SMILES)": "Cc1ccccc1Oc1cc(-n2c(=O)cc(C(F)(F)F)[nH]c2=O)c2ccccc2c1Cl", "inhibition": "10.3%"}
{"Structure (SMILES)": "Nc1nc(NCc2ccccc2)nc(-c2ccccc2CO)n1", "inhibition": "-4.07%"}
{"Structure (SMILES)": "CCc1ccccc1C(=O)Nc1n[nH]c2c(C)c(F)c(C3C(C#N)=C(C)N(C)C(C)=C3C#N)cc12", "inhibition": "6.23%"}
{"data": "Study 4", "SMILES": "Cc1ncc(-c2cc3cc(-c4c(C)ccc(O)c4C)cnc3[nH]2)cn1", "target": "Membrane-associated tyrosine- and threonine-specific cdc2-inhibitory kinase (PKMYT1, Homo sapiens, UniProt Q99640)", "Construct (Q99640 1-499)": "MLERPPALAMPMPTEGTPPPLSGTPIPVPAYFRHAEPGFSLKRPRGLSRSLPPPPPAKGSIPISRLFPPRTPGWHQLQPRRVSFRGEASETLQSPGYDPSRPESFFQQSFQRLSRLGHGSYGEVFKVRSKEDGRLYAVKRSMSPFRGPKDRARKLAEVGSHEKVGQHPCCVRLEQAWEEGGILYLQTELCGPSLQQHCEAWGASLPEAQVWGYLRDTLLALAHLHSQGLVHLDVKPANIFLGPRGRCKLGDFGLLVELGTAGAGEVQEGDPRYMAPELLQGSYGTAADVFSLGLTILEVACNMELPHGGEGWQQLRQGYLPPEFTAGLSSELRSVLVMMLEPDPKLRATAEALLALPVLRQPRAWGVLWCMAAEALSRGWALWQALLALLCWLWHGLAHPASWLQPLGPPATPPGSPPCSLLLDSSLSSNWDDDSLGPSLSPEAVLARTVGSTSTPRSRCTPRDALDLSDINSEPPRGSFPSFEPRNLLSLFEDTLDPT"}
{"concentration": "0.000508 µM", "inhibition": "3.71% and -4.67%"}
{"concentration": "0.00152 µM", "inhibition": "-2.51% and -0.27%"}
{"concentration": "0.3704 µM", "inhibition": "99.8%"}
{"effect on": "cell-free assay", "method": "TR-FRET", "concentration": "4.57 nM", "inhibition": "14.3%"}
{"data": "Study 5", "target": "cAMP-dependent protein kinase catalytic subunit gamma (PRKACG, Homo sapiens, UniProt P22612)", "effect on": "enzyme activity", "mode": "inhibitor", "concentration": "0.5 µM", "baseline": "control", "chain of UniProt P22612 (whole entry, looked up)": "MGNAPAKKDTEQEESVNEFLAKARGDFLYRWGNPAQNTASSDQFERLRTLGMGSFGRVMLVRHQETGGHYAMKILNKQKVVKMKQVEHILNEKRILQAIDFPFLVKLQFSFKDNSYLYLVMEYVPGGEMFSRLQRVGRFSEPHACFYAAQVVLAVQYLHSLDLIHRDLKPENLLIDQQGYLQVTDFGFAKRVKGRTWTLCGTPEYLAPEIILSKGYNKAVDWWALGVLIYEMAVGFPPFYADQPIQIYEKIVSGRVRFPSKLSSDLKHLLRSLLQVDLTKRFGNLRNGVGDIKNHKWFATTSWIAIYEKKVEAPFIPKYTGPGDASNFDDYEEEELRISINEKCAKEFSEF"}
{"SMILES": "N#CC(C#N)=C(N)/C(C#N)=C/c1ccc(O)cc1", "remaining activity [%]": 96.8}
{"SMILES": "O=C1NC(=O)C(c2cn(CCCn3ccnc3)c3ccccc23)=C1Nc1ccccc1", "remaining activity [%]": 117}
{"SMILES": "O=C(O)c1ccc2c3c1cccc3c(=O)n1c3ccccc3nc21", "remaining activity [%]": 127}
{"SMILES": "COc1cc2ncnc(Nc3ccc(Oc4ccccc4)cc3)c2cc1OC", "remaining activity [%]": 137}
{"SMILES": "Cc1nc(-c2ccccc2)c(-c2ccncc2)o1", "remaining activity [%]": 108}
{"SMILES": "C#Cc1cccc(Nc2ncnc3cc(OCCOC)c(OCCOC)cc23)c1", "remaining activity [%]": 108}
{"SMILES": "CCOC(=O)c1c(C)[nH]c(/C=C2\\C(=O)Nc3ccccc32)c1C", "remaining activity [%]": 88.4}
{"SMILES": "O=C(CCCc1ccc(-c2ccccc2F)cc1)Nc1ccc(O)cc1", "remaining activity [%]": 93.5}
{"SMILES": "NCCNc1ncc(C(N)=O)c(Nc2cccc(C(F)(F)F)c2)n1", "remaining activity [%]": 97.9}
{"SMILES": "CNC(=O)c1cc(Oc2ccc(NC(=O)Nc3ccc(Cl)c(C(F)(F)F)c3)cc2)ccn1", "remaining activity [%]": 100}
{"SMILES": "COc1cc2ncnc(Nc3ccc(F)c(Cl)c3)c2cc1OCCCN1CCOCC1", "remaining activity [%]": 107}
{"SMILES": "Cc1ccc(NC(=O)c2ccc(CN3CCN(C)CC3)cc2)cc1Nc1nc(-c2cccnc2)cs1", "remaining activity [%]": 110}
{"SMILES": "Nc1ncnc2n[nH]c(Nc3ccc(F)cc3)c12", "remaining activity [%]": 96.2}
{"SMILES": "Nc1ccc2ncnc(NCCc3ccc(Oc4ccccc4)cc3)c2c1", "remaining activity [%]": 110}
{"SMILES": "Oc1ccc(-c2nc(-c3ccncc3)c(-c3ccc(F)cc3)[nH]2)cc1", "remaining activity [%]": 78.4}
{"SMILES": "CO[C@H]1C[C@@H]2CC[C@@H](C)[C@@](O)(O2)C(=O)C(=O)N2CCCC[C@H]2C(=O)O[C@H]([C@H](C)C[C@@H]2CC[C@@H](O)[C@H](OC)C2)CC(=O)[C@H](C)/C=C(\\C)[C@@H](O)[C@@H](OC)C(=O)[C@H](C)C[C@H](C)/C=C/C=C/C=C/1C", "remaining activity [%]": 113}
{"SMILES": "Cc1ccc(Nc2nccc(N(C)c3ccc4c(C)n(C)nc4c3)n2)cc1S(N)(=O)=O", "remaining activity [%]": 111}
{"SMILES": "COc1cc2nccc(Oc3ccc(NC(=S)NC(=O)c4ccccc4C)cc3)c2cc1OC", "remaining activity [%]": 107}
{"SMILES": "Cc1cccc(-c2[nH]c(C(C)(C)C)nc2-c2ccc3c(c2)OCO3)n1", "remaining activity [%]": 119}
